Measured values gathered from unrelated publications.
Each numbered part is a random draw from the data of one study; scales do not carry over between parts. Changes are numbered by the printed parent chain.

Study 1 — technique: protein-binding microarray; form: double-stranded DNA, one strand shown; matrix: in vitro; tested at: 2200 nM top; notes: 60-bp whole probe; with: salmon DNA 0.4 mg/ml; relative to: random background probes; direction: higher = stronger binding; constant ends, left off below: GCCTAGCAC … GTCTTGATTCGCTTGACGCTGCTG
Target: Interferon regulatory factor 7, full length, phosphomimetic (IRF7, Homo sapiens, UniProt Q92985, residues 1-503, S471D/S472D/S475D/S476D/S477D/S483D/S484D/S487D)
UniProt Q92985, sequence (whole entry, unmodified, looked up): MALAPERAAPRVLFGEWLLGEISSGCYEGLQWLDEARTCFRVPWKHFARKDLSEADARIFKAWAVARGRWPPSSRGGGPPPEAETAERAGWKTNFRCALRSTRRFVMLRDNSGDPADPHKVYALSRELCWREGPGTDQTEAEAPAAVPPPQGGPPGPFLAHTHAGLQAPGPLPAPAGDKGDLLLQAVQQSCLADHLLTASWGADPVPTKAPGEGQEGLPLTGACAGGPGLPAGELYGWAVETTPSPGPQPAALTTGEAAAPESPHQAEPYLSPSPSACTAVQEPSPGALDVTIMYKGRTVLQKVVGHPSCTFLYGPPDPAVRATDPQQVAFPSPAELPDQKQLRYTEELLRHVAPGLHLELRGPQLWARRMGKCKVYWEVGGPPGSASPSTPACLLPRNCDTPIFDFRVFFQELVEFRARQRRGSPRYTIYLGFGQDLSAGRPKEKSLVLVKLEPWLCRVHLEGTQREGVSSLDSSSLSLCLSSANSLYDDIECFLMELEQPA
| Oligonucleotide | fitted relative affinity [z-score] |
| --- | --- |
| TTAGAACTGGGAACTGGATTAGTGCTA | -0.79 |
| GACGGTATCGGGTTTCGCGACGTGCTA | 0.923 |
| GACTGTCTCCTTTTCCTGACGTGCTAG | 1.84 |
| TTAGGTTTCCGGACTGGGTTAGTGCTA | 0.535 |
| ATGCTTCTGGTCTTCTGGGCGTGCTAG | 0.817 |
| TTAGATCTGAGTCTCGATTAGTGCTAG | 0.3 |
| TCACCTGAATGAAAACATACTGTGCTA | 0.116 |
| TTCATTTTTTTTTTCATCATGTGCTAG | 1.99 |

Study 2 — technique: universal PBM; form: double-stranded DNA, one strand shown; matrix: in vitro; tested at: not given; direction: higher = stronger binding
Target: Sal-like protein 4, full length isoform B (SALL4, Homo sapiens, UniProt Q9UJQ4-2, residues 1-616)
Notes: 8-mer, flanks averaged, mean of replicates
Residues (chain): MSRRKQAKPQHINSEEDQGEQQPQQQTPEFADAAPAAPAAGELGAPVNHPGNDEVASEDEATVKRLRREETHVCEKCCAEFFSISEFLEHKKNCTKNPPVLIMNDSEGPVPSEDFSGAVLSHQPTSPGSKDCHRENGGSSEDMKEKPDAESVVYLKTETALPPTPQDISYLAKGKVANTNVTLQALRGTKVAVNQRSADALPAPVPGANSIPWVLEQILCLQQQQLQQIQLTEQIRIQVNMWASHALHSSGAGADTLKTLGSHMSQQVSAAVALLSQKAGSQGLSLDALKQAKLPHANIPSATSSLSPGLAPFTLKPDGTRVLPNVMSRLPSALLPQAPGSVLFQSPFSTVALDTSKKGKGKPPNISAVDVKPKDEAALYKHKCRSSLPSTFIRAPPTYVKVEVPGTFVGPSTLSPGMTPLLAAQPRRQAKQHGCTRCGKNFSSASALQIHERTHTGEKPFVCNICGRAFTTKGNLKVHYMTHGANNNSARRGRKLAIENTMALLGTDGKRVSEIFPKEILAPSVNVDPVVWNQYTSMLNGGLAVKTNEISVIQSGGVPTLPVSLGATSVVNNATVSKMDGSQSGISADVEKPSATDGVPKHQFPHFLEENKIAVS
| Oligonucleotide | E-score |
| --- | --- |
| ACTATAGA | 0.238 |
| CAAGGGCG | -0.146 |
| ACGGACCG | -0.311 |
| CAACGGAC | -0.105 |
| AGGCAACT | 0.057 |
| CGGGAATC | -0.242 |
| CCTCTTCC | -0.189 |

Study 3 — target: CCND2, cyclin fold, Cln2 fusion (human); technique: yeast growth competition, sequencing; matrix: yeast; notes: strong parent motif; relative to: not given; direction: higher = stronger binding
Starting sequence: PKN2 docking peptide (human); VSAVRKLDFSDTM; partner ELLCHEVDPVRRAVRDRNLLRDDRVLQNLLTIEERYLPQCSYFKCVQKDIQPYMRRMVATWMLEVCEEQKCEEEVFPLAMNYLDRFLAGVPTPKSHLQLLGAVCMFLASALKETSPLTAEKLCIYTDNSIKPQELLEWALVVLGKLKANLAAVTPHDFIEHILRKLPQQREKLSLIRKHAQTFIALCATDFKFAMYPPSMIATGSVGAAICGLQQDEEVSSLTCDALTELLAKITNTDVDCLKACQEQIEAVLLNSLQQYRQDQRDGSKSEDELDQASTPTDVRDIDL
| Substitution | normalised enrichment score |
| --- | --- |
| D11L | 2.91 |
| D8V | 1.77 |
| S10C | 2.97 |

Single results of other studies
| Substance | target | test | test system | conditions | how to read | measurement | value |
| --- | --- | --- | --- | --- | --- | --- | --- |
| PhoQ, residues 284 288 289 292 302 303 SVHLDV | PhoP, residues 12 14 15 18 19 LHHVQ (Escherichia coli, UniProt P23836) | Sort-seq, measured: YFP reporter | E. coli | PhoQ-PhoP variant library, with: 10 µM Mg2+ | relative to: high Mg2+ state, higher = stronger signaling | fold induction | 0.73 |
